{"data": "Measured values collected from several papers", "B1": "PknH; chain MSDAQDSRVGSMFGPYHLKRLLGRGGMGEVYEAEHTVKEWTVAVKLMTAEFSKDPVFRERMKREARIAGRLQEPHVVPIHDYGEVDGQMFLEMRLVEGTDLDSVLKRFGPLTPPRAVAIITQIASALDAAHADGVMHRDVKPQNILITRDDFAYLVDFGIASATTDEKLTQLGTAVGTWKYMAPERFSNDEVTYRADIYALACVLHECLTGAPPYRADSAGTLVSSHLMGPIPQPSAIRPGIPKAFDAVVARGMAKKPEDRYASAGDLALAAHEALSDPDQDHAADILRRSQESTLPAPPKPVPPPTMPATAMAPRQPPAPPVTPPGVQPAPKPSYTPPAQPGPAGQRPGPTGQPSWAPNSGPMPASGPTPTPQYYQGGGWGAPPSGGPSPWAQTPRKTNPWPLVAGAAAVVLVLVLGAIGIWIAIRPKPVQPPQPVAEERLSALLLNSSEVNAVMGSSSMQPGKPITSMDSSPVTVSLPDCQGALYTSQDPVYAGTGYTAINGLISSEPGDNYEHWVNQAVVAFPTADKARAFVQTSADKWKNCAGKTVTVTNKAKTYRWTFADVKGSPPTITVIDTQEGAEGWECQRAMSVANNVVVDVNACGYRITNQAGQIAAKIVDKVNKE", "note": "± gives the spread as reported. Ends that are not written are not given here."}
{"Molecule": "nef fragment L112D (HIV-1) (sequence not shown)", "tested on": "HCK SH3 domain (Homo sapiens)", "assay": "SEC-MALS", "endpoint": "molecule per partner", "result": 1}
{"Molecule": "MnTx-1 mature (Pterinochilus murinus, UniProt C0HMD2)", "tested on": "KCNA3 (Homo sapiens, UniProt P22001-1)", "assay": "K+ current inhibition, inhibitor, patch-clamp", "conditions": "whole-cell", "endpoint": "IC50", "result": "381 nM"}
{"Molecule": "ACE2/pIgR VHH6 Fc fusion ACE2 , Fc fusion (Homo sapiens)", "tested on": "spike RBD RBD (SARS-CoV-2, UniProt P0DTC2)", "assay": "BLI", "endpoint": "koff", "result": "1.82e-05 s⁻¹"}
{"Molecule": "B1 (PknH)", "tested on": "Transcriptional regulatory protein EmbR (embR, Mycobacterium tuberculosis, UniProt P9WGJ9)", "endpoint": "Kd", "result": "69 ± 96 nM"}
{"Molecule": "p2o (Trametes ochracea, UniProt Q7ZA32)", "tested on": "Nc1ccc2nc3ccc(N)cc3[s+]c2c1", "assay": "steady-state kinetics", "conditions": "pH 6.5, 22 °C, apparent", "endpoint": "kcat", "result": "4.2 ± 0.1 s⁻¹"}
{"Molecule": "RSV F/foldon soluble ectodomain S155C/S190F/V207L/S290C/D486H/E487Q/F488W/D489H (respiratory syncytial virus)", "tested on": "itself", "assay": "SEC", "endpoint": "subunits per oligomer", "result": 3}
{"Molecule": "Nef homodimer, full length (HIV-1, UniProt P03407)", "tested on": "BTK SH3-SH2 dimer (Mus musculus)", "assay": "SPR", "endpoint": "Kd", "result": "1750 nM"}
{"Molecule": "GCCSNPVCHLEHSNLC (α-conotoxin MII; not fully specified (C-terminus, bridges); cysteine pairing not given here; sequence looked up)", "tested on": "Chrna3/Chrnb2 (Mus musculus, UniProt Q8R4G9+Q9ERK7)", "assay": "ion current", "test system": "peptide, mouse", "conditions": "dose not given", "endpoint": "current inhibition", "result": "95%"}
{"Molecule": "Tat fragment (HIV-1)", "tested on": "SLC6A3 Y470F (Homo sapiens, UniProt Q01959)", "assay": "dopamine uptake", "test system": "PC12", "conditions": "20 min, added: Tat 250 nM", "how to read": "baseline: untreated control, higher = stronger decrease", "endpoint": "Vmax decrease", "result": "47%"}
{"Molecule": "QPLRKLCILHRNPGRCYQKIPAFYYNQKKKQCEGFTWSGCGGNSNRFKTIEECRRTCIRK (dendrotoxin I; ends and bridges not checked; cysteine pairing not given here; sequence looked up)", "tested on": "Kcnma1 (Rattus norvegicus, UniProt Q62976)", "assay": "channel block", "test system": "rat", "conditions": "added: bound BP", "how to read": "baseline: BP-bound over unoccupied channel", "endpoint": "affinity decrease", "result": "8.4 fold"}
{"Molecule": "LMP1 D150A (Epstein-Barr virus)", "tested on": "itself", "assay": "luciferase reporter", "test system": "HEp2", "how to read": "baseline: LMP-1 expressing cells, higher = more activity", "endpoint": "NFκB reporter activity", "result": "15%"}
{"Molecule": "FolB (Mycobacterium tuberculosis, UniProt P9WNC5)", "tested on": "Nc1nc2c(c(=O)[nH]1)N=C([C@H](O)[C@H](O)CO)CN2", "assay": "steady-state kinetics", "conditions": "pH 7, 25 °C", "endpoint": "kcat/Km", "result": "36000 ± 5500 M⁻¹ s⁻¹"}
{"Molecule": "Spike receptor binding domain (SARS-CoV-2)", "tested on": "ACE2 recombinant ectodomain 18-740 (Homo sapiens, UniProt Q9BYF1)", "assay": "SPR", "endpoint": "kon", "result": "493000 M⁻¹ s⁻¹"}
{"Molecule": "BKRF4 fragment (Epstein-Barr virus)", "tested on": "H2A/H2B dimer (Homo sapiens)", "assay": "ITC", "conditions": "25 °C, NaCl 0.5 M", "endpoint": "Kd", "result": "1100 nM"}
{"Molecule": "LPFAMGIIAM", "assay": "AIM", "test system": "peptide, CD8+ T cells from PBMC, human donors", "conditions": "dose not given", "endpoint": "response magnitude per positive donor", "result": 107}
{"Molecule": "E1 N436A, x", "tested on": "itself", "assay": "oligonucleotide displacement", "how to read": "baseline: wild-type E1, higher = greater defect", "endpoint": "helicase activity defect", "result": "2 fold"}
{"Molecule": "GRKKRRQRRRPQEDGGSFWYGAMKALYG (designed peptide)", "tested on": "CIB1 (Homo sapiens, UniProt Q99828)", "assay": "competition with peptide, competitor, TR-FRET", "test system": "peptide", "endpoint": "IC50", "result": "192 ± 17 nM"}
{"Molecule": "DAVNLLTNM", "assay": "AIM", "test system": "peptide, CD8+ T cells from PBMC, human donors", "conditions": "dose not given", "endpoint": "response magnitude per positive donor", "result": 108}
{"note": "Some of these lines once more:"}
{"Molecule": "LMP1 D150A (Epstein-Barr virus)", "tested on": "itself", "assay": "luciferase reporter", "test system": "HEp2", "how to read": "baseline: LMP-1 expressing cells, higher = more activity", "endpoint": "NFκB reporter activity", "result": "15%"}
{"Molecule": "FolB (Mycobacterium tuberculosis, UniProt P9WNC5)", "tested on": "Nc1nc2c(c(=O)[nH]1)N=C([C@H](O)[C@H](O)CO)CN2", "assay": "steady-state kinetics", "conditions": "pH 7, 25 °C", "endpoint": "kcat/Km", "result": "36000 ± 5500 M⁻¹ s⁻¹"}
